Results of several laboratories.
A part holds a random share of what one study measured. Changes are numbered by the printed parent chain.

Series 1 — method: DHFR PCA, dose-response; matrix: yeast; setting: Hill fit, mean, not affinity; with: (+)-ABA, dose series; direction: lower = more sensitive
Target: ABI1, truncated, D143A, DHFR fusion (Arabidopsis thaliana, UniProt P49597)
Starting sequence: PYL1, truncated, DHFR fusion (Arabidopsis thaliana, UniProt Q8VZS8); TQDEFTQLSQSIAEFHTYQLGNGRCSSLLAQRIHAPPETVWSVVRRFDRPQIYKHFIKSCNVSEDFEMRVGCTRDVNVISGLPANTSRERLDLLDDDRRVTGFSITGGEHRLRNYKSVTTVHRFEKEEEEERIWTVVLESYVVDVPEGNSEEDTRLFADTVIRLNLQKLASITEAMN
Change	ABA EC50
F5D	6.09 µM
V76C	5.68 µM
E131I	4.13 µM
S80A	118 µM
D97F	6.44 µM
D92Q	134 µM
L82V	13.8 µM
D3W	3.36 µM
H110G	273 µM
E67K	2.61 µM
K116S	1.83 µM
F56T	227 µM
D159R	252 µM
L112M	5.99 µM
S104G	321 µM
V142L	14.7 µM
F103M	42.3 µM

Series 2 — method: protein-binding microarray; molecule type: double-stranded DNA, one strand shown; matrix: in vitro; tested at: 250 nM; setting: 60-bp whole probe; with: salmon DNA 0.4 mg/ml; reference: random background probes; direction: higher = stronger binding; shared flanks, not repeated: GCCTAGCAC … GTCTTGATTCGCTTGACGCTGCTG
Target: Interferon regulatory factor 5, full length, phosphomimetic (IRF5, Homo sapiens, UniProt Q13568-2, residues 1-514, K96S/S451D/S453D/S456D/S462D)
Strand	log fluorescence [z-score]
TCACTTTTATGCTCTTTCACTGTGCTA	2.55
TTACGACTGCTTTTCCTTTAGTGCTAG	1.39
TCAGCTTTCTCTTTCATACTGTGCTAG	4.89
GACGGTTTCGGACAGGGGACGTGCTAG	4.03
GAAATTCTCATTTCCAATTAGTGCTAG	1.67
TTAGGTTTCCTTATCCTGTAGTGCTAG	0.92
TTAGGACTGGTCTTTCGGTTAGTGCTA	7.31
GACGGTCTCCTTATCCAGACGTGCTAG	-0.0712
TTAGCTATCGGGTTTCGATTAGTGCTA	7.84
GTCGATTTCAGTATCGAGACGTGCTAG	5.08
GACGATCTCAGTATCGAGGCGTGCTAG	1.08
TTAGGTCTTGGTCTCGGTTAGTGCTAG	0.482
TTAGAACTGAGTCTCGATTGGTGCTAG	0.612
CAGAATCTCTCATGTTACATTGTGCTA	0.36
GACGGTCTCGGACTGGGGAGGTGCTAG	-0.297
GACGGTATCGGGTATCGGCACGTGCTA	3.5
TTAGAACTGGGGACTGGATCAGTGCTA	-0.219
CACGATATCGGGTATCGAGACGTGCTA	2.33

Series 3 — method: RNA Bind-n-Seq; molecule type: RNA; matrix: in vitro; tested at: 365 nM; reference: no-protein control; direction: higher = stronger binding
Target: RNA binding protein fox-1 homolog 2, RRM domain, GST-SBP tag (RBFOX2, Homo sapiens, UniProt O43251-10, residues 100-194)
Setting: natural RNA segment, single round, ends assumed
Shared flanks, not repeated: GGGAGUUCUACAGUCCGACGAUC … UGGAAUUCUCGGGUGCCAA
Target sequence (chain): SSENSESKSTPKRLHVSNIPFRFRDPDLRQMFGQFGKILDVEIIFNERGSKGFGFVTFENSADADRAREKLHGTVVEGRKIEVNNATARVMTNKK
Strand	RBNS enrichment (R)
GGAAAUAACUGUGUAACAAAUCGUAUUAUAAAUAUUUCAAUUAAUUUUACUCUGAAUUUGUUUAUUAAAAGACUUUUGAACAUGAAAUGAUUAGUAUUACUUGAAUGCAU	1.01
AAUUUUCAAUUUAUGGUGAUGAUCUGCUGAUAUGCAUUUAUAAAGUAAGCUCUGUUGUACAGUCUGUCCAAAUGGGUCAAGGUUGCCUUUAGAAGCAAAUAGUGUGAUUU	0.487
CUGGUUGUUUCUGGUAUAGCUGUGCCACGAGAGCCCAGCUUGCUGUUGCUGCGGCCCUGGGGUUUAACCUCUUCCUGCCAGGAGCGGGACUAAUGCGCCGGGAAGGCUGG	0.568
CCUUUGUGUUCUCACUUGCAUAAAGCUAUUCAAGGUACUUUUUAAAAGGCAAGGGUUGAUCCCCGCAGCCCUUCUCUGAAUUCUCACUGCUGAUAUCUGAAUGAAGCAAC	0.469
CUUAUUUUCCUGAGUUAGAUCCCAGCCCAUGCCCAGCUGGAAGGGUCUCUUUUGGGUCAAAAUCAGUCCUUCAGCUCUAAGGUUGCCCAGCAAAGGAAUCUAGGAAUGAC	0.242
CAGCUGCCGUUAACCUUUUCACCAGGUGCCACAGUAAUAUUUCUGGUUUUUAGCCCUUUCUCUGCACUACCAACAAGAGAUAAAAUUGUUACUCACACUUAUGUCUUACU	0.319
CAUAGAAAAUCCUUUUUUGCUUUUCCUUUUGAGACAGAGUUUUGGUAGCUCCUACCAGCCUCCAAUUCUCUAUGUAGCUGAAGAUGACCUUGACUACCUGAGUUUCCUGU	0.26
UCAAGAGAUUUGUCCUCCUUGGGGGACCACUGGAUCAUUCCAGAUUUCUUGUGAUUUUUCUAUUGUGUAAUUCUUGGUGGGCUCUGUAGUUUAAUAAUAAGAAAAAGGCC	0.718
AGAAGAAUGGAUGUGGUUCUUCUUGUGUAUUUAUUUGUAUCAUAAACACUUGGAACAACAAAGACCAUAAGCAUCAUUUAGCAGUUGUAGCCAUUUUCUAGUUAACUCAU	0.72
CCCAGAGGUCAUAGGUGAUGGUCCUACUGCCCAACAGUUGCCUUUUGAAUCCUUAUGUUGAUGAUGGUGUCUUUCUACACACUCACUGCAACUACUCAGGAAUUAUAAAG	0.204
UAAGGGAUAUUGGGAAAAGUUUUGGUGUGUUUCUGUUGAUUUCUUUUUUGUAUGCUGUGAUAAAAGAGAAAUGAAAAGUGCCAGUCACUGUGUGGUGUCUAGGAAAAUCA	1.85
UUCAGAGACUACUUUGUCACUCACUGACCAUGUCUGGUUCCUUCUCUGAACUUCAUUCUCCCCAUAAGCCAAACAAGAACAGACCUCCCCCGCCACCUCCCAGGCACCGU	1.05

Series 4 — method: RNA Bind-n-Seq; molecule type: RNA; matrix: in vitro; tested at: 200 nM; setting: whole 134-nt RNA, ends assumed; with: 150 mM LiCl; reference: input library; direction: higher = stronger binding; all molecules: 7-deaza-guanosine replaces G
Target: Fragile X messenger ribonucleoprotein 1, C-terminal low-complexity region (Fmr1, Mus musculus, UniProt P35922)
Shared flanks, not repeated: GGGAGUUCUACAGUCCGACGAUC … UGGAAUUCUCGGGUGUCAAGG
Strand	log2 enrichment
CCUCAAGUCCUGUGCUACACAUCGUAUGUACCGAAUCGGAGGGAGGGGAGGGAAAGUAUUAUGUUACGCCGUUCGGAUCUGCACUUCCAG	-0.869
CAAGUCCUGUGCUACACAUCGUAUGUACCGAAUCGGUGGUUUUUGGUUUUUUUGGAAAGUAUUAUGUUACGCCGUUCGGAUCUGCACUUC	-1.03
CAAGUCCUGUGCUACACAUCGUAUGUACCGAAUCGGAAAAAGGUUUUUGGAAAGGAAAGUAUUAUGUUACGCCGUUCGGAUCUGCACUUC	-2.07
UGGGAGGUGGAUUUUGUUUAUUUUUUUAGAUCAUUUCCAGGGGUGGGAAUUUUUUUUUAAUAUGUGUCAUGAAUAAAGUUGUUUUUGAAA	-0.774
GUCCUGUGCUACACAUCGUAUGUACCGAAUCGGGUUUUUUGGUUUUUUGGGUUUUUUGGAAAGUAUUAUGUUACGCCGUUCGGAUCUGCA	-1.32
UGGCCCUGGUGGCAUGCGGGGAGGAAGAGGUGGCCUCAUGGAUCGUGGUGGUCCCGGUGGGAUGUUCAGAGGUGGCCGUGGUGGAGACAG	-0.213
CACAGACAACACGCACCCACACAGACACAGAGAAAAGGGGUUGGGAUGGGGACAGGGUGCACAGCAGGGCGGGGUAGGACCCCAGCCCCU	0.454
CCUGUGCUACACAUCGUAUGUACCGAAUCGGGGAAAAAGGGGUUUUUGGGGUUUUUGGGGAAAGUAUUAUGUUACGCCGUUCGGAUCUGC	-1.4
UCCUGUGCUACACAUCGUAUGUACCGAAUCAAAUUUUUAAACCCCCAAACCCCCCCAAAAAAGUAUUAUGUUACGCCGUUCGGAUCUGCA	1.77
UCAGAGGAAUAUCCUUGACUUCCCCCAGCAUGUUUCCCCCUCCAAGGACAUCCGGACAGCCAGCACAGAGGCCGACAAGAAGCUCUCUGA	1.14
UCCUCAAGUCCUGUGCUACACAUCGUAUGUACCGAAUCGGGAGGGAGGAGGAAAGUAUUAUGUUACGCCGUUCGGAUCUGCACUUCCAGC	-2.16

Series 5 — effect on: peptide binding; molecule type: peptide; matrix: yeast competitive growth; with: B2-Cln2 chimera; direction: direction not given
Molecule	enrichment score
SSEVARHLLFQSHM	0.0442
KRNLLNEFDRII	2.19
PKRAKRKLYTSEISSP	-0.116

Repeated from above (series 1):
Change	ABA EC50
F5D	6.09 µM
V76C	5.68 µM
E131I	4.13 µM
S80A	118 µM
